Experimental data gathered from unrelated publications.
Each line is one published result; not all experiments were run side by side. Several values in a cell are separate wells, animals, samples, runs or records. Numbers after ± are the reported error.

For C=CC(=O)N1CCC[C@@H](c2ccc(C(N)=O)c3[nH]ccc23)C1, the IC50 was over 1000 nM (Ramos; calcium flux, FLIPR; 4 h preincubation).
With CNC(=O)c1cc(Oc2ccc(NC(=O)Nc3ccc(Cl)c(C(F)(F)F)c3)cc2)ccn1 the beat amplitude was 98.7% (iCell Cardiomyocytes (hiPSC-derived); xCELLigence Cardio impedance; concentration not given, 2 h; reference: control).
The viability of Cc1cccc(-c2[nH]c(CNc3ccccc3F)nc2-c2ccc3ncnn3c2)n1 is reported as 18% and 16% and 30% (MM1.S pomalidomide-resistant; XTT; 3 µM).
Cn1c(Nc2nc3ccc(C(F)(F)F)cc3s2)nc2cc(C(=O)NCCOCCO)ccc21 gave a fold change of 1.66 (SH-SY5Y; RNA-seq, measured: ERRFI1 mRNA; 5 µM, 5 h; reference: untreated cells).
COC(=O)c1cc(C(C)=NNc2nc(-c3ccc4c(c3)OCCCO4)cs2)ccc1O gave an apoptotic cells of 16.8 ± 1.63% (T47D; annexin V/PI flow cytometry; 20 µM, 72 h).
The phospho ratio of CSc1cc(Oc2ccnc3[nH]c(=O)cnc23)ccc1NC(=O)Nc1cc(C(C)(C)C)nn1-c1ccccc1 is reported as 0.66 (patient-derived cells; RPPA, measured: phosphorylated HER3; 1 µM, 4 h, mean of three patients; reference: DMSO).
N[C@@H](CC(=O)O)C(=O)O: “z-scored log2 fold change” 0.302 (binding, equilibrium dialysis LC-MS; 5 µM, thermostabilized A2AR-BRIL construct; reference: no-protein control, direction not given).
Cn1cc(-c2ccc(-c3cncc(Cl)c3N3CCC4(CCNC4=O)CC3)cc2)cn1 — result for “log2 fold change”: -4.85 (COLO 205; gene expression, microarray, measured: PLA2G2A mRNA; concentration not given, 2 h; reference: untreated cells).
COc1ccc2c(c1)CN(C(=O)CCN1CCC(Cc3ccccc3)CC1)CC[S@@+]2[O-] gave an APD90 prolongation of about 10% (rabbit ventricular cardiomyocytes; optical action potential; 0.3 µM, 30 min, pacing 2 Hz).
For COc1cnc2cccc(N3CCc4c(cc(Cn5ccnc5C)cc4-c4cn(C)nc4C(F)(F)F)C3=O)c2c1, the EC50 was over 30000 nM (CFPAC-1; cell growth, inhibitor; 120 h).
O=C(CCl)N[C@@H](Cc1c[nH]c2ccccc12)C(=O)O gave a CP50 of 529 ± 51 nM (HeLa expressing HaloTag; cell permeability, chloroalkane penetration).
For Cn1cc(-c2ccc(F)c(C(F)(F)F)c2)nc1C1CCN(c2ncnc3[nH]ncc23)CC1, “relative cell number” read 99.2% (SK-OV-3; ATP; 0.01 µM, 4 days, 3D gellan gum culture; reference: untreated).
With CCCCc1oc2ccc(NS(C)(=O)=O)cc2c1C(=O)c1ccc(OCCCN(CCCC)CCCC)cc1 the fold change was 2.2 fold (human embryonic stem cell aggregates; mRNA level, microarray, measured: NEUROG2; 0.5 µM, 120 h; reference: untreated, up-regulated).
CCN(CC)CCNC(=O)c1c(C)[nH]c(/C=C2\C(=O)Nc3ccc(F)cc32)c1C has an ATP level of 104% (iCell Cardiomyocytes (hiPSC-derived); CellTiter-Glo; concentration not given, 24 h; reference: control).
CC(C)C[C@@H](C=O)NC(=O)[C@H](CC(C)C)NC(=O)[C@H](CC(C)C)NC(=O)OCc1ccccc1 gave an FLuc activity of 1.26 (HEK293; measured: CD4 signal peptide-FLuc reporter; concentration not given, 4 h, time-course chase, unit not given, with: cycloheximide; reference: untreated).
Cc1cccc(C)c1NC(=O)CN1CCCC1=O — result for “maximal ROS response”: -89.8 ± 11.9% (HepaRG; ROS-Glo).
The inhibition of COc1cc2ncnc(Cc3cccc(-c4ccccc4OC)c3)c2cc1OC is reported as 48% (A549; mitochondrial oxygen consumption, Seahorse XF96; 10 µM).
CCn1cc(-c2cc(Cn3ccoc3=N)cc3c2CCN([C@@H](C)c2cc(OC)ccn2)C3=O)c(C(F)(F)F)n1 gave an EC50 of 489 nM (CAL-120; cell growth, inhibitor; 120 h).
For C=C(c1ccc(O)c(Oc2cc3c(cc2OC)CCN(C)[C@@H]3Cc2ccc(OC)cc2)c1)[C@H]1c2cc(OC)c(OC)cc2CCN1C, the inhibition was 10.2 ± 0.9% (3T3-L1; adipocyte lipid accumulation, Nile Red staining; 1 µM).
The selectivity ratio of CC(C)CNC(=S)N/N=C/c1ccc(N2CCC(O)CC2)cc1 is reported as 7.2 (BEAS-2B and A549; MTT; reference: IC50 BEAS-2B over IC50 A549).
The toxicity of COc1ccc(-n2nc(C(C)=O)s/c2=N\N=C(/C)c2ccc(NC(=O)c3ccc(C)cc3)cc2)cc1 is reported as 43.9% (MCF7; 0.156 µM).
For CC/C(=N\NC(=O)C(C)Nc1ccccc1)c1ccc(O)c(C)c1O (stereo not drawn), the protein level was 1.18 ± 0.55 (SK-OV-3; Western blot, measured: YAP; 10 µM, 6 h, 3D gellan gum culture, unit not given; reference: β-actin).
O=C(O)C(O)c1ccccc1 (racemic): “z-scored log2 fold change” 0.438 (binding, equilibrium dialysis LC-MS; 5 µM, thermostabilized A2AR-BRIL construct; reference: no-protein control, direction not given).
For CC(C)(C)c1cnc(CSc2cnc(NC(=O)C3CCN(C(=O)CCCCCCCN4Cc5cc6c(cc5C4)C(=O)N(C4CCC(=O)NC4=O)C6=O)CC3)s2)o1 (stereo not drawn), “cleaved caspase-3 and PARP” read “increased” (TC-71; Western blot; concentration not given, 24 h).
Under “relative cell number”, Clc1ccc(C2(c3ccc(-c4cn[nH]c4)cc3)CCNCC2)cc1 is recorded as 91.7% (SK-OV-3; ATP; 2D monolayer culture; 0.1 µM, 4 days; reference: untreated).
COc1ccc2c(N(C)c3ccc(/C(C)=N/OCCN)cc3)c3c(Cl)coc3nc2c1 — result for “colony formation reduction”: 99% (LNCaP C-81; clonogenic; 0.5 µM, 6 d).
For C=CC(=O)Nc1cc2c(Nc3ccc(F)c(Cl)c3)ncnc2cc1OCCCN1CCOCC1, the cell index was 96.8% (iCell Cardiomyocytes (hiPSC-derived); cellular impedance; concentration not given, 24 h; reference: control).
O=c1[nH]nc(OCCCc2ccc(Cl)cc2)c(NCc2cccnc2)c1Br — result for “normalized enrichment score”: -0.868 (HEK-293T; RNA-seq GSEA, measured: HALLMARK_PANCREAS_BETA_CELLS; concentration not given; direction not given).
With C#Cc1cccc(Nc2ncnc3cc(OCCOC)c(OCCOC)cc23)c1 the cell index was 101% (iCell Cardiomyocytes (hiPSC-derived); cellular impedance; concentration not given, 24 h; reference: control).
The viability decrease of O=c1ncccn1[C@@H]1O[C@H](CO)[C@@H](O)[C@H]1O is reported as 6% (MEC1; trypan blue exclusion; 200 µM, maximal, with: external beam irradiation 2 Gy; reference: control).
With C=CC(=O)N1CCC[C@@H](n2nc(-c3ccc(Oc4ccccc4)cc3)c3c(N)ncnc32)C1 the IC50 was 0.8 nM (TMD8 RAC2 knockout; calcium flux, FLIPR; 4 h preincubation).
Cc1cc(Nc2ncc(Cl)c(Nc3ccccc3S(=O)(=O)C(C)C)n2)c(OC(C)C)cc1C1CCNCC1 — result for “log2 fold change”: -3.12 (CLB-GE; phosphoproteomics LC-MS/MS, measured: WDR62 phosphorylation; 200 nM, 60 min; reference: untreated).
CCCN1CCN(c2ccc3[nH]c(-c4ccc5[nH]c(-c6ccc(OCC)c(OCC)c6)nc5c4)nc3c2)CC1 has a growth percent of -64% (BT-549; SRB; 10 µM, 48 h).
O=C(NCCCNS(=O)(=O)c1ccc(OC(F)(F)F)cc1)C1=Cc2ccccc2S1(=O)=O gave a recovery half-time of about 24 h (HEK293; immunoblotting, measured: REST protein; after compound removal).
The selectivity ratio of c1ccc(-c2csc(NCc3ncccn3)n2)nc1 is reported as under 2 (THLE-2; reference: CC50 THLE-2 over Huh-7).
COc1cc(N2CCC(N3CCN(C)CC3)CC2)ccc1Nc1ncc(Cl)c(Nc2ccccc2P(C)(C)=O)n1 has an Emax of 79% (NB1 (ALK amplification, exon 2-3 deletion); cell viability).
Cn1cc(Nc2nccc(-c3ccc4c(c3)CN(C3COC3)CC[C@H]4NC(=O)c3cn(C(C)(C)C)nn3)n2)cn1: “pathway activation z-score” 3.16 (mouse splenic B cells; measured: PEDF signalling; 30 mg/kg, IgD-activated in vivo; reference: vehicle, direction not given).
CCn1c(-c2nonc2N)nc2cncc(CNC3CCNCC3)c21 — result for “relative cell number”: 127% (SK-OV-3; ATP; 0.01 µM, 4 days, 3D U-bottom low-attachment; reference: untreated).
For C=CC(=O)N1CCC([C@@H]2CCNc3c(C(N)=O)c(-c4ccc(Oc5ccccc5)cc4)nn32)CC1, the IC50 was 1.41 nM (Ramos; calcium flux, FLIPR; 4 h preincubation).
The cell index of Cc1nc(Nc2ncc(C(=O)Nc3c(C)cccc3Cl)s2)cc(N2CCN(CCO)CC2)n1 is reported as 104% (iCell Cardiomyocytes (hiPSC-derived); cellular impedance; concentration not given, 24 h; reference: control).
Under “phospho-ZAP-70 positive cells”, O=C(Oc1cc(O)cc2c1C[C@@H](OC(=O)c1cc(O)c(O)c(O)c1)[C@@H](c1cc(O)c(O)c(O)c1)O2)c1cc(O)c(O)c(O)c1 is recorded as 22.8% (Jurkat TAg T cells; phospho-flow cytometry; 500 nM, 30 min, 37 °C, with: TCR stimulation 2 min; reference: DMSO).
CC[C@@H]1C(=O)N(C)c2cnc(Nc3ccc(C(=O)NC4CCN(C)CC4)cc3OC)nc2N1C1CCCC1 has a cell index of 57.1% (iCell Cardiomyocytes (hiPSC-derived); cellular impedance; concentration not given, 24 h; reference: control).
With CCn1cc(-c2cc(Cn3ccnc3)cc3c2CCN([C@H](c2cc(OC)ccn2)C2CC2)C3=O)c(C(F)(F)F)n1 the EC50 was 78.9 nM (CAL-120; cell growth, inhibitor; 120 h).
The maximal inhibition of C[C@H]1CN(C2COC2)CCN1c1ccc(Nc2cc(-c3ccnc(N4CCn5c(cc6c5CC(C)(C)C6)C4=O)c3CO)cn(C)c2=O)nc1 is reported as at most 90% (Ramos; calcium flux, FLIPR).
For Oc1cccc(-c2nc(N3CCOCC3)c3oc4ncccc4c3n2)c1, the beat amplitude was 104% (iCell Cardiomyocytes (hiPSC-derived); xCELLigence Cardio impedance; concentration not given, 2 h; reference: control).
